Published values from different studies.
A part holds a random share of what one study measured. Changes are numbered by the printed parent chain.

Set 1
Target: CEBPE, bZIP domain (human)
Technique: DHFR protein complementation
Sample: yeast
Setting: single substitutions, most at no-binding floor
Relative to: wild-type JUN-FOS pair
Reading: higher = stronger binding
Starting sequence: JUN, bZIP domain (human); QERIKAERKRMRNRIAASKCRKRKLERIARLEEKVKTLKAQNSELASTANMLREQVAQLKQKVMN; partner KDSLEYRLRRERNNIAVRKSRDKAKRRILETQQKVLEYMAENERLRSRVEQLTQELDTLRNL
Variant	binding fitness [natural log]
L38N	-1.54
E33W	-1.35
L45E	-1.46
L52C	-1.53
S47N	-0.971
R53P	-1.49
Q55M	-1.25
T48L	-1.12
L52R	-1.46
R53I	-1.18
K36H	-1.26
L38R	-1.51
K34T	-1.19
A49M	-1.03
T48K	-0.958
K36I	-1.35
E54C	-1.24
E54A	-1.25
Q55S	-1.41
V35P	-1.53
V56Y	-1.12

Set 2
Target: CCNE1, cyclin fold, Cln2 fusion (human)
Technique: yeast growth competition, sequencing
Sample: yeast
Setting: weak parent motif
Relative to: not given
Reading: higher = stronger binding
Starting sequence: USP37 docking peptide (human); PSAKRSLGFLPQP
Variant	normalised enrichment score
PSAKASLGFLPQP [R5A]	-0.0534
PAAKRSLGFLPQP [S2A]	0.358
PSAKRSLAFLPQP [G8A]	0.214
PSAKRSLGALPQP [F9A]	0.0162
ASAKRSLGFLPQP [P1A]	0.0077
PSAKRSLGFLPQA [P13A]	0.127

Set 3
Target: UBE2I UBC core domain (UniProt P63279)
Technique: yeast two-hybrid
Sample: yeast
Setting: mostly zero background
Relative to: not given
Reading: higher = stronger interaction
B1: MSL2 RING domain (UniProt Q9HCI7); chain LLPYFRQSLSCCVCGHLLQDPIAPTNSTCQHYVCKTCKGKKMMMKPSCSWCKDYEQFEENKQ
B2: TRIM15 RING domain (UniProt Q9C019); chain SLKVVHELPACTLCAGPLEDAVTIPCGHTFCRLCLPALSQMGAQSSGKILLCPLCQEEEQAETPMA
B3: RNF175 RING domain (UniProt Q8N4F7); chain LPTRSLSDNICAVCGQKIIVELDEEGLIENTYQLSCNHVFHEFCIRGWCIVGKKQTCPYCKEKVDLKRMIS
B4: TRIM3 RING domain (UniProt O75382); chain VQPMDKQFLVCSICLDRYQCPKVLPCLHTFCERCLQNYIPAQSLTLSCPVCRQTSILPEQGV
B5: RNF4 RING domain (UniProt P78317); chain TGLRPSGTVSCPICMDGYSEIVQNGRLIVSTECGHVFCSQCLRDSLKNANTCPTCRKKINHKRYHP
B6: PEX2 RING domain (UniProt P28328); chain DNTLATSGKECALCGEWPTMPHTIGCEHIFCYFCAKSSFLFDVYFTCPKCGTEVHSLQPLK
B7: TRIM55 RING domain (UniProt Q9BYV6); chain TMDNLEKQLICPICLEMFTKPVVILPCQHNLCRKCASDIFQASNPYLPTRGGTTMASGGRFRCPSCRHEVVLDRHG
B8: RNF112 RING domain (UniProt Q9ULX5); chain QPMAPRELPTCSICLERLRDPISLDCGHDFCIRCFSTHRLPGCEPPCCPECRKICKQKRGLR
B9: RFPL2 RING domain (UniProt O75678); chain MAALFQEASSCPVCSDYLEKPMSLECGCAVCLKCINSLQKEPHGEDLLCCCSSMVSRKNKIRR
Sequence	lacZ reporter activity
B1 (MSL2 RING domain)	0
B2 (TRIM15 RING domain)	0
B3 (RNF175 RING domain)	0
B4 (TRIM3 RING domain)	0
B5 (RNF4 RING domain)	0
B6 (PEX2 RING domain)	0
B7 (TRIM55 RING domain)	0
LKQVSIRENCCSLCCDEVADTQLKPCGHSDLCMDCALQLETCPLCRKEIVSRIRQI (RSPRY1 RING domain (UniProt Q96DX4))	0
B8 (RNF112 RING domain)	0
B9 (RFPL2 RING domain)	0

Set 4
Target: RNA binding protein fox-1 homolog 2, RRM domain, GST-SBP tag (RBFOX2, Homo sapiens, UniProt O43251-10, residues 100-194)
Technique: RNA Bind-n-Seq
Molecule type: RNA
Sample: in vitro
Tested at: 365 nM
Setting: natural RNA segment, single round, ends assumed
Relative to: no-protein control
Reading: higher = stronger binding
Constant ends, left off below: GGGAGUUCUACAGUCCGACGAUC … UGGAAUUCUCGGGUGCCAA
Construct (chain): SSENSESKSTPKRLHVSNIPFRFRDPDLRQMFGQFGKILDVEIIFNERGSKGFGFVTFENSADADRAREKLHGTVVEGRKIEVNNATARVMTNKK
Oligonucleotide	RBNS enrichment (R)
UCUGCUUCUAAAAUUGCCCCACCUGCUCUAGAUGGAUCUUUGGGCCUUUCCUCAGUGUUCAUGCAAAAAUUAAAUGUCUUUUUUCAGCAUACUGACUCCAGGUGUAGUUA	0.678
UUUUGAAUGGGAAGUUCUCACUAAAACAAUCCUGAGAUUUCUUAAUUUCAUGGUUCUUUAAAUAUUAUAAACACAGAGUCAACAUAGAAUGAAAUUGUAUUUGUUAAAAU	0.727
AGCGGGCUAGGGCCCAGGGCAGCUUGCCCGUGCUGCUGUGCAGUUCUUGCCUCCCUCACGGGGCGUCACCCCCAGCCCAGCUCCGUUGUACAUAAAUGCCUUGUGGCAGA	0.571
GAAUGUUUGACAGUCACAGAAGGUUCCUGCAGCAGAUGCCUCUUUUAGCCAUUUCUCAUUUUUUUCCUCAAAUUUUACCUACUGAGGCUCAAGCCUUCACAGUGAGCUGA	0.469
UUCAGUAAAGAGCUACAGAACAUGAGUACAUUGUUAUACCACAGAUUUUUCUUGCAUUAGGGCACAGUGUUAAAUUUUUUGGAGGUAAAUAUACUAUUUAUAAUCACUAU	0.79
CUUGCUUUCCACUGACACUCAGUUCACCCUGCCACUCUGCAAGGUUUGCCUUGGGCAGCUGUGGGGUUUUUCCGAUCUUGCUAGCCCGCAGGCAUCUUGACAUCUUAGUA	0.323
UUGACACACACAUUCACAUAUAAAUUGUUAAAAACUGAAGGCAGAAUGGAACUAAUAUAUGUAACAGAGAAAAACAAUAAAUUUUAUGAACUUGUUUUAUAUUUGCAUAU	0.547
GAGACAAUAAUUAGACAAUACUGUAUAAUUAGUUUUACUUAAUAGAUUAUCAUCUUGUGAGAAGAGAUGUUUAAACGUGGUAAAUCACUUCAUAUUACAAAACAGUUUUA	0.478

For quick reference, copied from above (set 1):
Variant	binding fitness [natural log]
L45E	-1.46
L52C	-1.53
S47N	-0.971
